Published values collected from several papers.
Protocols differ between the studies behind these lines. “And” joins repeats or separate records; there may be more than shown. ± gives the spread as reported.

CN(C(=O)n1cnc(-c2ccc[n+]([O-])c2)c1)C1CCCCC1 — change in licking score (mice, formalin paw test; oral, 1 mg/kg, late phase; reference: vehicle, direction not given): -28%
N#Cc1ccc2c(-c3ccncc3)c(-c3ccc(F)cc3)nn2c1 — log2 fold change (kinase binding, competitor, MIB/MS competition, measured: PKH3; Candida albicans cell lysate; 100 nM; reference: DMSO): 0.0286
Cc1nn(-c2nc3c(F)cc(F)cc3s2)c(O)c1C(c1ccc(C(F)(F)F)cc1)c1c(C)nn(-c2nc3c(F)cc(F)cc3s2)c1O — histology score (measured: parenchymal necrosis; mouse, cerulein-induced acute pancreatitis; 25 mg/kg; direction not given): 1 and 0
Cc1n[nH]c2ccc(-c3cc(OC[C@@H](N)Cc4ccccc4)cnc3-c3ccoc3)cc12 — log2 fold change (kinase binding, competitor, MIB/MS competition, measured: YCK2; Candida albicans cell lysate; 1 µM; reference: DMSO): -1.75
N#Cc1ccc2c(c1)[C@H]1CCCN(C(=O)c3ccc4[nH]cnc4c3)[C@H]1C2 — C-peptide AUC change (meal tolerance test; human, Phase II trial; 20 mg once daily, day 28, AUC0-2 h, adjusted mean; reference: baseline): 0.2 pmol/h/L
COc1cc2cc(-c3ccc(CC(=O)Nc4cc(C(C)(C)C(F)(F)F)no4)cn3)cnc2cc1OC — partial response as best response (RECIST v1.1; RET-altered advanced solid tumour patients; oral, 40 mg once daily, phase I): 33%
CC(c1cc2ccccc2s1)N(O)C(N)=O (stereo not drawn) — amount (measured: 5-HEPE; human whole blood; 3 µM, with: Escherichia coli): 42 ± 14 pg/mL blood
N=C(N)NCCC[C@H](NC(=O)[C@H](CCCNC(=N)N)NC(=O)[C@H](CCCCN)NC(=O)[C@H](CCC(N)=O)NC(=O)[C@H](CCCCN)NC(=O)[C@H](Cc1ccc(O)cc1)NC(=O)[C@@H](N)CCCCN)C(=O)N[C@@H](CO)C(=O)N[C@@H](Cc1ccc(O)cc1)C(=O)N[C@@H](CCCCN)C(=O)O — median VAS change (dentin hypersensitivity patients aged 30-40 years; 10 µg/tooth, day 36, unit not given; reference: baseline): -17
CC(C)[C@H](C(=O)Nc1ccc(C(=O)NO)cc1)c1ccccc1 — pure-tone average, left ear (human; 1.6 2 weeks after dosing; higher = worse hearing): -2 dB
CO[C@H]1CC[C@H](N2C(=O)CNc3ncc(-c4ccc(C(C)(C)O)nc4)nc32)CC1 — p4EBP1 change from baseline (flow cytometry; stimulated T cells, human, blood; 60 mg single dose, 1.5 h, median; reference: baseline): -36.3%
NC1(C(=O)N[C@@H](CCO)c2ccc(Cl)cc2)CCN(c2nc[nH]c3nccc2-3)CC1 — CTC conversion response rate (human mCRPC patients; dose not given, includes non-confirmed conversions, with: enzalutamide): 37.5%
COc1ccccc1[C@H](Cn1c(=O)n(C(C)(C)C(=O)O)c(=O)c2c(C)c(-c3ncco3)sc21)OC1CCOCC1 — blood ketones (human; 200 mg, post-treatment): 0.14 ± 0.052 mmol/L
CCCCCCCCCC1NCCc2cc(O)c(O)cc21 (stereo not drawn) — Fe2+ chelation (ferrozine; cell-free; 100 µM, DMSO solvent): 28.4 ± 1.31%
Cc1cnc(N2CC3(CCOCC3)C2)c(C(=O)Nc2ccc(C(=O)N3CCc4cc(C(=O)Nc5c(C)cccc5F)sc4-c4ccccc43)cc2)c1 — inhibition (measured: RANTES; human RSV infection, nasal wash; dose not given, AUC, ITT-IS population; reference: placebo): 36%
c1ccc(-c2n[nH]cc2-c2ccnc3ccccc23)nc1 — log2 fold change (kinase binding, competitor, MIB/MS competition, measured: ATG1; Candida albicans cell lysate; 10 µM; reference: DMSO): 1.74
Cc1ccc(C(=O)Nc2ccc(CN3CCN(C)CC3)c(C(F)(F)F)c2)cc1C#Cc1cnc2cccnn12 — lag time (platelet aggregation; platelet-rich plasma; 0.1 µM, DMSO 130.6, with: collagen 2 mg/mL): 228 s
Nc1nc2cc(-c3ccc4ncc(C(=O)N5CCOCC5)n4c3)ccc2o1 — partial response duration (RECIST v1.1; advanced solid tumour patients; dose not given, range over): 3.6 to 12.2 months
C[C@H]1C[C@H]2CSC(N)=N[C@@]2(c2nc(NC(=O)c3ccc(OC(F)F)cn3)cs2)CO1 — total plasma Aβ change (healthy adults, fed, plasma; oral, 200 mg single dose, 8 h; reference: baseline, placebo-adjusted): -56.4%
COc1ccccc1C(=O)NCc1ccc(CNS(=O)(=O)c2ccc(C)cc2)cc1 — ear edema (xylene-induced ear edema; mouse; intraperitoneal, 10 mg/kg): no effect
O=C(O)CNC(=O)Cc1ccccc1 — sarcomere length (ventricular cardiomyocytes, C57BL/6 mouse; dose not given, 0.188 s): 1.62 µm
CC(=O)Oc1cc2c(s1)CCN(C(C(=O)C1CC1)c1ccccc1F)C2 (stereo not drawn) — patients with IPA above 90% (platelet aggregation, light transmission aggregometry; human patients, platelet-rich plasma; 2 h, with: TRAP 5 µM): 0%
CC(C)[C@H](NC(=O)[C@H](Cc1ccc(O)cc1)NC(=O)[C@H](Cc1ccc(O)cc1)NC(=O)[C@@H]1CCCN1C(=O)[C@H](CCC(=O)O)NC(=O)[C@H](CCC(=O)O)NC(=O)[C@H](Cc1c[nH]c2ccccc12)NC(=O)[C@@H]1CCCN1C(=O)[C@@H](NC(=O)[C@H](CCC(N)=O)NC(=O)c1ccc2c(c1)C(=O)OC21c2ccc(O)cc2Oc2cc(O)ccc21)C(C)C)C(=O)N[C@H](C(=O)N[C@@H](CCCCN)C(=O)N[C@@H](CCCCN)C(=O)N[C@@H](CO)C(=O)N[C@@H](CO)C(=O)NCC(=O)NCC(N)=O)C(C)C — share of responses (nerve penetration depth; human head and neck surgery, nerves; 500 mg, slightly improved; reference: white light): 15.4%
O=C(/C=C\n1cnc(-c2cc(C(F)(F)F)cc(C(F)(F)F)c2)n1)NNc1cnccn1 — median overall survival (C57BL/6 mice, Eµ-TCL1 CLL transplant; 15 mg/kg, 2 times per week): 134 days
CC(C)NCC(O)c1ccc(O)c(O)c1 (stereo not drawn) — sarcomere length (ventricular cardiomyocytes, C57BL/6 mouse; dose not given, 0.6 s): 1.67 µm
COc1cc(Nc2ncc3c(n2)-c2ccc(Cl)cc2C(c2c(F)cccc2OC)=NC3)ccc1C(=O)O — median response score (mouse, KT-10 Wilms tumour xenograft; 2.6 mg/kg; direction not given): 0
OC(CCN1CCCCC1)(c1ccccc1)C1CC2C=CC1C2 (stereo not drawn) — change in EEG Beta1-power Pz-O2 (resting-state EEG; healthy elderly humans; oral, 2 mg, eyes open, LS mean; reference: baseline): -1.7%
Cn1cc([C@H]2C[C@H]3CSC(N)=N[C@@]3(c3ccc(F)cc3F)CO2)cn1 — Aβ40 level (wild-type mouse, CSF; subcutaneous, 3 mg/kg, 3 h): 1.16 ng/mL
NC(=O)c1cnc2[nH]ccc2c1N[C@@H]1[C@@H]2CC3C[C@H]1C[C@@](O)(C3)C2 — total naive T-cell change (flow cytometry; Japanese healthy men, blood; oral, 10 mg twice daily, 72 h after day 7 dose; reference: baseline): -6.3%
C[C@@H](NC(=O)N1C(=O)[C@H](Cc2ccnc(N)c2)[C@H]1C(=O)O)C1CCCCC1 — aPTT AUEC (human; iv infusion, 0.3 mg/kg/h, 24 h): 6430 h·s
CN(C)C(=O)c1cc2cnc(Nc3ccc(N4CCNCC4)cn3)nc2n1C1CCCC1 — normalized enrichment score (RNA-seq GSEA, measured: HALLMARK_NOTCH_SIGNALING; MB002 tumour; concentration not given, in vivo; reference: vehicle, direction not given): 0.983
Cn1cc(Nc2nccc(-c3ccc4c(c3)CN(C3COC3)CC[C@H]4NC(=O)c3cn(C(C)(C)C)nn3)n2)cn1 — pathway activation z-score (measured: Leukocyte Extravasation Signaling; splenic B cells, mouse; in vivo, 30 mg/kg, IgD-activated B cells; reference: vehicle, positive = activation): 3.13
COc1nc(-c2cc(C)c(N[C@@H](C)c3cc(F)cc(F)c3)nn2)ccc1-n1cnc(C)c1 — change in level (measured: Aβ42; rat Sprague-Dawley male, CSF; oral, 50 mg/kg daily for 9 days, 4 h after dose; reference: vehicle): 88%
CN[C@@H]1COc2c(S(=O)(=O)NC(=O)Nc3c4c(cc5c3CCC5)CCC4)cnn2C1 — inhibition (measured: IL-1β; human participants, whole blood ex vivo; 450 mg single dose, 336 h, with: LPS/ATP; reference: baseline): -11.1%
C=CCn1c(=O)c2cnc(Nc3ccc(N4CCN(C)CC4)cc3)nc2n1-c1ccc2c(n1)[C@@](O)(CC)CC2 — duration of γH2AX increase (immunohistochemistry; mouse, OVCAR-3 xenograft, tumour; 100 mg/kg, dosed 5 days): 48 h
N[C@@H](CC(=O)N1CCn2c(nnc2C(F)(F)F)C1)Cc1cc(F)c(F)cc1F — total cholesterol (type 2 diabetes patients on metformin, fasting plasma; oral, 100 mg once daily, 28 weeks): 188 mg/dL
C[C@H](Oc1ccc(Br)cc1-c1ccon1)C(=O)O — latency change (muscle velocity recovery cycles; human, tibialis anterior muscle; 200 mg once daily, multiple doses, frequency ramp, last response at 15 Hz; reference: placebo): 1.17%
O=C(COc1ccc(Cl)cc1)NC12CC(c3nnc([C@H]4C[C@@H](OC(F)(F)F)C4)o3)(C1)C2 — ATF4 protein change (healthy human, PBMC; 260 mg once daily, day 14, 4 h post-dose, median, with: sodium arsenite ex vivo; reference: baseline): -65.2%
CC[C@H](C)[C@H](NC(=O)[C@H](C)NC(=O)CNC(=O)[C@H](Cc1ccccc1)NC(=O)[C@H](CC(N)=O)NC(=O)[C@H](CC(N)=O)NC(=O)[C@H](CO)NC(=O)[C@H](CO)NC(=O)[C@H](Cc1c[nH]cn1)NC(=O)[C@@H](NC(=O)[C@H](CC(C)C)NC(=O)[C@H](Cc1ccccc1)NC(=O)[C@H](CC(N)=O)NC(=O)[C@H](C)NC(=O)[C@H](CC(C)C)NC(=O)[C@H](CCCNC(=N)N)NC(=O)[C@H](CCC(N)=O)NC(=O)[C@@H](NC(=O)[C@H](C)NC(=O)[C@@H]1CSSC[C@H](NC(=O)[C@@H](N)CCCCN)C(=O)N[C@@H](CC(N)=O)C(=O)N[C@@H]([C@@H](C)O)C(=O)N[C@@H](C)C(=O)N[C@@H]([C@@H](C)O)C(=O)N1)[C@@H](C)O)C(C)C)C(=O)N[C@@H](CC(C)C)C(=O)N[C@@H](CO)C(=O)N[C@@H](CO)C(=O)N[C@H](C(=O)N[C@@H](CC(N)=O)C(=O)N[C@H](C(=O)NCC(=O)N[C@@H](CO)C(=O)N[C@@H](CC(N)=O)C(=O)N[C@H](C(=O)N[C@@H](Cc1ccc(O)cc1)C(N)=O)[C@@H](C)O)C(C)C)[C@@H](C)O — total insulin content (ELISA; isolated mouse islets; 10 µM, 24 h, unit not given; reference: control): 0.542
O=C(NC[C@H]1CN(c2ccc(N3CCOCC3=O)cc2)C(=O)O1)c1ccc(Cl)s1 — prothrombin time AUC(0-48h) (human moderate renal impairment, plasma; 10 mg, geometric mean, unit not given; reference: baseline): 64.2
CC(C)c1c(C(=O)Nc2ccccc2)c(-c2ccccc2)c(-c2ccc(F)cc2)n1CC[C@@H](O)C[C@@H](O)CC(=O)O — aortic plaque burden reduction (ApoE-/- mouse; oral gavage, dose not given): 63%
COC[C@@H](c1ccc(C(F)(F)F)cc1)N1CCN(C2(C)CCN(C(=O)c3c(C)ncnc3C)CC2)C[C@@H]1C — change in HIV-1 RNA (HIV-1 patients, plasma; 5 mg, week 2; reference: baseline): -0.89 log10 copies/mL
CN(CCOc1ccc(CC2SC(=O)NC2=O)cc1)c1ccccn1 (stereo not drawn) — fatty acid beta-oxidation I pathway (IPA pathway analysis; human liver spheroids; 1 µM, 10 d): increased
NNC(=O)c1ccncc1 — IL-1β level (ELISA; Mycobacterium marinum-infected mice, blood; intraduodenal, 10 mg/kg three times daily, 3 days post infection): 28 pg/mL and 28.9 pg/mL and 28.3 pg/mL
COc1cc(C2NCCc3cc(O)c(O)cc32)ccc1O (stereo not drawn) — Fe2+ chelation (ferrozine; cell-free; 100 µM, DMSO solvent): 94.2 ± 2.32%
CC1(C)CCC(c2ccc(Cl)cc2)=C(CN2CCN(c3ccc(C(=O)NS(=O)(=O)c4ccc(N[C@H](CCN5CCOCC5)CSc5ccccc5)c(S(=O)(=O)C(F)(F)F)c4)cc3)CC2)C1 — EC50 (cell killing; primary canine neoplastic B cells, dog 40; 24 h): 2720 nM

Repeated from above:
NC1(C(=O)N[C@@H](CCO)c2ccc(Cl)cc2)CCN(c2nc[nH]c3nccc2-3)CC1 — CTC conversion response rate (human mCRPC patients; dose not given, includes non-confirmed conversions, with: enzalutamide): 37.5%
C[C@@H](NC(=O)N1C(=O)[C@H](Cc2ccnc(N)c2)[C@H]1C(=O)O)C1CCCCC1 — aPTT AUEC (human; iv infusion, 0.3 mg/kg/h, 24 h): 6430 h·s
NC(=O)c1cnc2[nH]ccc2c1N[C@@H]1[C@@H]2CC3C[C@H]1C[C@@](O)(C3)C2 — total naive T-cell change (flow cytometry; Japanese healthy men, blood; oral, 10 mg twice daily, 72 h after day 7 dose; reference: baseline): -6.3%
CC(C)NCC(O)c1ccc(O)c(O)c1 (stereo not drawn) — sarcomere length (ventricular cardiomyocytes, C57BL/6 mouse; dose not given, 0.6 s): 1.67 µm
O=C(COc1ccc(Cl)cc1)NC12CC(c3nnc([C@H]4C[C@@H](OC(F)(F)F)C4)o3)(C1)C2 — ATF4 protein change (healthy human, PBMC; 260 mg once daily, day 14, 4 h post-dose, median, with: sodium arsenite ex vivo; reference: baseline): -65.2%
